Experimental data from different studies.
Compare with care: the assays were run in different laboratories. ± gives the spread as reported.
CYP1A2: Cytochrome P450 1A2 (CYP1A2, Homo sapiens, UniProt P05177)
PROK: Proteinase K (PROK, Engyodontium album, UniProt P06873)

N=C(N)NCCC[C@H](NC(=O)[C@H](CCCNC(=N)N)NC(=O)[C@H](CCCNC(=N)N)NC(=O)[C@H](CCC(N)=O)NC(=O)[C@H](CCCNC(=N)N)NC(=O)[C@H](CCCNC(=N)N)NC(=O)[C@H](CCCCN)NC(=O)[C@H](CCCCN)NC(=O)[C@H](CCCNC(=N)N)NC(=O)CNC(=O)[C@H](Cc1ccc(O)cc1)NC(=O)CNC(=O)CNC(=O)[C@H](CCCCN)NC(=O)[C@H](CCCNC(=N)N)NC(=O)[C@H](CCC(N)=O)NC(=O)[C@H](CS)NC(=O)[C@H](CCC(N)=O)NC(=O)CNC(=O)[C@H](CC(N)=O)NC(=O)[C@@H](N)CCCNC(=N)N)C(N)=O  degradation (Trypsin (Sus scrofa, UniProt P00761); HPLC; concentration not given, 20 min, pH 8.0, 37 °C): > 55%
O=P([O-])([O-])Oc1ccc(-c2cc(=S)ss2)cc1.[Na+].[Na+]  time to complete hydrolysis (ALPI (Bos taurus, UniProt P19111); prodrug conversion, substrate; bovine intestinal enzyme; 300 µM, pH 7.4, 37 °C): < 5 s
C=CC(=O)Nc1cc(Nc2nccc(-c3cn(C)c4ccccc34)n2)c(OCC(F)(F)F)nc1N(C)CCN(C)C  activity vs control (Cytochrome P450 3A4 (CYP3A4, Homo sapiens, UniProt P08684); enzyme activity, inhibitor; human, liver microsomes; 10 µM, midazolam probe): 78%
CC(C)(O)c1ccccc1CC[C@H](c1cccc(/C=C/c2ccc3ccc(Cl)cc3n2)c1)[S+]([O-])CC1(CC(=O)O)CC1 (stereo partly shown)  inhibition (CYP1A2; inhibitor; human liver microsomes; 10 µM, pH 7.4, added: phenacetin): 1.35%
CC[C@H](C)[C@H](NC(=O)[C@H](Cc1ccc(OCc2cn(CCOCCOCCOCCOC)nn2)cc1)NC(=O)[C@H](CC(N)=O)NC(=O)[C@H](Cc1ccccc1)NC(=O)[C@H](Cc1ccc(O)cc1)NC(=O)[C@H](Cc1ccc(O)cc1)NC(=O)[C@@H](NC(=O)[C@H](CCCNC(=N)N)NC(=O)CNC(=O)[C@H](CO)NC(=O)[C@H](CO)NC(=O)[C@H](CCCNC(=N)N)NC(=O)[C@H](CO)NC(=O)[C@H](CCSC)NC(=O)[C@H](CCCNC(=N)N)NC(=O)[C@H](CCCCN)NC(=O)[C@H](CCC(=O)O)NC(=O)[C@H](Cc1c[nH]c2ccccc12)NC(=O)CNC(=O)[C@@H]1CCCN1C(=O)[C@@H]1CCCN1C(=O)[C@H](CC(C)C)NC(=O)[C@@H](N)CCCCN)C(C)C)C(=O)N[C@H](C(=O)N[C@@H](CC(N)=O)C(=O)N[C@@H](C)C(=O)N[C@@H](CO)C(=O)N[C@@H](CCC(N)=O)C(=O)N[C@@H](Cc1ccccc1)C(=O)N[C@@H](CCC(=O)O)C(=O)N[C@@H](CCCNC(=N)N)C(=O)N1CCC[C@H]1C(=O)N[C@@H](CO)C(=O)NCC(=O)O)[C@@H](C)O  ln rate constant ratio (PROK; proteolysis, substrate, HPLC; room temperature; reference: PEGylated over non-PEGylated variant, negative = more stable): -1.3 ± 0.4
CC[C@H](C)[C@@H]1NC(=O)[C@H](C(C)C)NC(=O)[C@H](C(C)C)NC(=O)[C@H](CC(C)C)NC(=O)C[C@@H](C(=O)N[C@@H](Cc2c[nH]c3ccccc23)C(=O)N[C@@H](CC(N)=O)C(=O)N[C@@H](C)C(=O)N2CCC[C@H]2C(=O)NCC(=O)N[C@@H](Cc2ccccc2)C(=O)N[C@@H](Cc2ccccc2)C(=O)O)NC(=O)[C@H](C)NC(=O)[C@H](CCC(N)=O)NC(=O)[C@H](C(C)C)NC1=O  proteolytic stability (carboxypeptidase Y; 12 h, pH 6.0, 28 °C): stable
O=C1Cc2cc(CCN3CCN(C4=NS(=O)(=O)c5ccccc54)CC3)c(Cl)cc2N1  inhibition (CYP1A2; inhibitor; human liver microsomes; 2 µM, pH 7.4, added: phenacetin): 11.7%
CCCCCCCCCCCCCCCC(=O)Nc1nc2ccccc2c2c1ncn2CC(C)C  maximum adsorption capacity (SERPINB14 (Gallus gallus, UniProt P01012)): 455 ± 16.9 mg/g
CC[C@H](C)[C@H](NC(=O)[C@H](Cc1c[nH]cn1)NC(=O)[C@H](CC(N)=O)NC(=O)[C@H](Cc1ccccc1)NC(=O)[C@H](Cc1ccc(O)cc1)NC(=O)[C@H](CCn1cc(COCCOCCOCCOC)nn1)NC(=O)[C@@H](NC(=O)[C@H](CCCNC(=N)N)NC(=O)CNC(=O)[C@H](CO)NC(=O)[C@H](CO)NC(=O)[C@H](CCCNC(=N)N)NC(=O)[C@H](CO)NC(=O)[C@H](CCSC)NC(=O)[C@H](CCCNC(=N)N)NC(=O)[C@H](CCCCN)NC(=O)[C@H](CCC(=O)O)NC(=O)[C@H](Cc1c[nH]c2ccccc12)NC(=O)CNC(=O)[C@@H]1CCCN1C(=O)[C@@H]1CCCN1C(=O)[C@H](CC(C)C)NC(=O)[C@@H](N)CCCCN)C(C)C)C(=O)N[C@H](C(=O)N[C@@H](CC(N)=O)C(=O)N[C@@H](C)C(=O)N[C@@H](CO)C(=O)N[C@@H](CCC(N)=O)C(=O)N[C@@H](Cc1ccccc1)C(=O)N[C@@H](CCC(=O)O)C(=O)N[C@@H](CCCNC(=N)N)C(=O)N1CCC[C@H]1C(=O)N[C@@H](CO)C(=O)NCC(=O)O)[C@@H](C)O  ln rate constant ratio (PROK; proteolysis, substrate, HPLC; room temperature; reference: PEGylated over non-PEGylated variant, negative = more stable): -0.4 ± 0.3
CCN(CC)CCOc1ccc(-c2nnn(Cc3ccc(OC)cc3)c2N)cc1  inhibition (CYP1A2; enzyme activity, inhibitor; concentration not given): no inhibition
CC[C@H](C)[C@H](NC(=O)[C@H](Cc1c[nH]cn1)NC(=O)[C@H](CC(N)=O)NC(=O)[C@H](Cc1ccccc1)NC(=O)[C@H](Cc1ccc(O)cc1)NC(=O)[C@H](Cc1ccc(O)cc1)NC(=O)[C@@H](NC(=O)[C@H](CCCNC(=N)N)NC(=O)CNC(=O)[C@H](CO)NC(=O)[C@H](CO)NC(=O)[C@H](CCCNC(=N)N)NC(=O)[C@H](CO)NC(=O)[C@H](CCSC)NC(=O)[C@H](CCCNC(=N)N)NC(=O)[C@H](CCCCN)NC(=O)[C@H](CCC(=O)O)NC(=O)[C@H](Cc1c[nH]c2ccccc12)NC(=O)CNC(=O)[C@@H]1CCCN1C(=O)[C@@H]1CCCN1C(=O)[C@H](CC(C)C)NC(=O)[C@@H](N)CCCCN)C(C)C)C(=O)N[C@@H](CCC(=O)NCCOCCOCCOCCOC)C(=O)N[C@@H](CC(N)=O)C(=O)N[C@@H](C)C(=O)N[C@@H](CO)C(=O)N[C@@H](CCC(N)=O)C(=O)N[C@@H](Cc1ccccc1)C(=O)N[C@@H](CCC(=O)O)C(=O)N[C@@H](CCCNC(=N)N)C(=O)N1CCC[C@H]1C(=O)N[C@@H](CO)C(=O)NCC(=O)O  ln rate constant ratio (PROK; proteolysis, substrate, HPLC; room temperature; reference: PEGylated over non-PEGylated variant, negative = more stable): -0.2 ± 0.3
[64Cu+2].c1ccc(CNCc2ccc(CN3CCCNCCNCCCNCC3)cc2)nc1  tissue uptake (CXCR4; NOD/SCID mouse, U87 and U87-stb-CXCR4 xenografts, stomach; iv, 90 min, no blocking dose, ex vivo): 2.46 ± 0.15 %ID/g
CC[C@H](C)[C@H](NC(=O)[C@H](Cc1c[nH]cn1)NC(=O)[C@H](CC(N)=O)NC(=O)[C@H](Cc1ccccc1)NC(=O)[C@H](Cc1ccc(O)cc1)NC(=O)[C@H](Cc1ccc(O)cc1)NC(=O)[C@@H](NC(=O)[C@H](CCCNC(=N)N)NC(=O)CNC(=O)[C@H](CO)NC(=O)[C@H](CCn1cc(COCCOCCOCCOC)nn1)NC(=O)[C@H](CCCNC(=N)N)NC(=O)[C@H](CO)NC(=O)[C@H](CCSC)NC(=O)[C@H](CCCNC(=N)N)NC(=O)[C@H](CCCCN)NC(=O)[C@H](CCC(=O)O)NC(=O)[C@H](Cc1c[nH]c2ccccc12)NC(=O)CNC(=O)[C@@H]1CCCN1C(=O)[C@@H]1CCCN1C(=O)[C@H](CC(C)C)NC(=O)[C@@H](N)CCCCN)C(C)C)C(=O)N[C@H](C(=O)N[C@@H](CC(N)=O)C(=O)N[C@@H](C)C(=O)N[C@@H](CO)C(=O)N[C@@H](CCC(N)=O)C(=O)N[C@@H](Cc1ccccc1)C(=O)N[C@@H](CCC(=O)O)C(=O)N[C@@H](CCCNC(=N)N)C(=O)N1CCC[C@H]1C(=O)N[C@@H](CO)C(=O)NCC(=O)O)[C@@H](C)O  ln rate constant ratio (PROK; proteolysis, substrate, HPLC; room temperature; reference: PEGylated over non-PEGylated variant, negative = more stable): -0.2 ± 0.3
Oc1c(Br)cccc1Br  Ki (Cytochrome P450 2E1 (CYP2E1, Homo sapiens, UniProt P05181); p-nitrophenol hydroxylation, competitive inhibitor, Cheng-Prusoff from IC50; added: p-nitrophenol): 3.5 µM
CC[C@H](C)[C@H](NC(=O)[C@H](Cc1c[nH]cn1)NC(=O)[C@H](CC(N)=O)NC(=O)[C@H](Cc1ccccc1)NC(=O)[C@H](Cc1ccc(O)cc1)NC(=O)[C@H](Cc1ccc(O)cc1)NC(=O)[C@@H](NC(=O)[C@H](CCCNC(=N)N)NC(=O)CNC(=O)[C@H](CO)NC(=O)[C@H](CCC(=O)NCCOCCOCCOCCOC)NC(=O)[C@H](CCCNC(=N)N)NC(=O)[C@H](CO)NC(=O)[C@H](CCSC)NC(=O)[C@H](CCCNC(=N)N)NC(=O)[C@H](CCCCN)NC(=O)[C@H](CCC(=O)O)NC(=O)[C@H](Cc1c[nH]c2ccccc12)NC(=O)CNC(=O)[C@@H]1CCCN1C(=O)[C@@H]1CCCN1C(=O)[C@H](CC(C)C)NC(=O)[C@@H](N)CCCCN)C(C)C)C(=O)N[C@H](C(=O)N[C@@H](CC(N)=O)C(=O)N[C@@H](C)C(=O)N[C@@H](CO)C(=O)N[C@@H](CCC(N)=O)C(=O)N[C@@H](Cc1ccccc1)C(=O)N[C@@H](CCC(=O)O)C(=O)N[C@@H](CCCNC(=N)N)C(=O)N1CCC[C@H]1C(=O)N[C@@H](CO)C(=O)NCC(=O)O)[C@@H](C)O  ln rate constant ratio (PROK; proteolysis, substrate, HPLC; room temperature; reference: PEGylated over non-PEGylated variant, negative = more stable): -0.3 ± 0.3
CNC(=O)Oc1cc(C)c([S+](C)[O-])c(C)c1 (stereo not shown)  inhibition (CYP1A2; inhibitor; human liver microsomes; 10 µM, pH 7.4, added: phenacetin): 7.66%

A few entries again:
CC[C@H](C)[C@H](NC(=O)[C@H](Cc1ccc(OCc2cn(CCOCCOCCOCCOC)nn2)cc1)NC(=O)[C@H](CC(N)=O)NC(=O)[C@H](Cc1ccccc1)NC(=O)[C@H](Cc1ccc(O)cc1)NC(=O)[C@H](Cc1ccc(O)cc1)NC(=O)[C@@H](NC(=O)[C@H](CCCNC(=N)N)NC(=O)CNC(=O)[C@H](CO)NC(=O)[C@H](CO)NC(=O)[C@H](CCCNC(=N)N)NC(=O)[C@H](CO)NC(=O)[C@H](CCSC)NC(=O)[C@H](CCCNC(=N)N)NC(=O)[C@H](CCCCN)NC(=O)[C@H](CCC(=O)O)NC(=O)[C@H](Cc1c[nH]c2ccccc12)NC(=O)CNC(=O)[C@@H]1CCCN1C(=O)[C@@H]1CCCN1C(=O)[C@H](CC(C)C)NC(=O)[C@@H](N)CCCCN)C(C)C)C(=O)N[C@H](C(=O)N[C@@H](CC(N)=O)C(=O)N[C@@H](C)C(=O)N[C@@H](CO)C(=O)N[C@@H](CCC(N)=O)C(=O)N[C@@H](Cc1ccccc1)C(=O)N[C@@H](CCC(=O)O)C(=O)N[C@@H](CCCNC(=N)N)C(=O)N1CCC[C@H]1C(=O)N[C@@H](CO)C(=O)NCC(=O)O)[C@@H](C)O  ln rate constant ratio (PROK; proteolysis, substrate, HPLC; room temperature; reference: PEGylated over non-PEGylated variant, negative = more stable): -1.3 ± 0.4
